Results of several laboratories.
Lines come from different studies, so protocols differ. Several values in a cell are separate wells, animals, samples, runs or records.
Target: Aurora kinase A (AURKA, Homo sapiens, UniProt O14965)

COc1cc(Nc2nccc(-c3cnn4nc(OC)ccc34)n2)cc(C(F)(F)F)c1  remaining binding (binding, competition with immobilised ligand; 1 µM): 71%
COc1c(Cl)cccc1Nc1c(-c2ccncc2C#C[C@@]2(C)CCCN2C(=O)/C=C/CN(C)C)[nH]c2c1C(=O)NCC2  remaining binding (cell-free assay, competition with immobilised ligand; 3 µM): 89%
CNS(=O)(=O)Nc1nccc(Cc2c(C)c3ccc(Oc4ncccc4F)cc3oc2=O)c1F  remaining binding (cell-free assay, competition with immobilised ligand; 10 µM): 100%
O=C(O)CCC(=O)c1cccc(NS(=O)(=O)c2c[nH]c3ncccc23)c1  remaining activity (kinase activity, radiometric; 10 µM): 56%
COc1ccc(NC(=O)Nc2ccc3c(c2)C(=O)N(C(C)CO)CC(C)C(CN(C)Cc2ccc4c(c2)OCO4)O3)cc1 (centres unmarked)  remaining binding (binding, competition with immobilised ligand; 10 µM): 22%
C=CC(=O)N1Cc2nc(-c3cc(-c4cc(Cl)cnc4Cl)c(F)cc3F)n(-c3ccncn3)c2C1  inhibition (cell-free assay, inhibitor; 1 µM): 6.2%
C[C@H]1CN(C(=O)c2cn(-c3ccnc(N)n3)c3cc(C#CC4(O)CCCCC4)ccc23)CCN1  inhibition (enzyme activity, inhibitor, FRET; 1 µM): 7%
NC(=O)[C@@H](O)C[C@H]1CCc2sc3ncnc(O[C@H]4CC[C@H](N5CCOCC5)CC4)c3c21  inhibition (enzyme activity, inhibitor; 10 µM): 16%
O=c1c(-c2ccc(Cl)c(CN3CCOCC3)c2)coc2cc(O)ccc12  remaining activity (enzyme activity, inhibitor; 1 µM): 97%
CNC1C[S+]2CC[S+]3CC[S+](C1)[Ru-4]321([N]=C=S)[n]2c3ccc(OC)cc3c3c4c(c5cc(F)c[n+]1c5c32)C(=O)NC4=O (centres unmarked)  remaining binding (KinomeScan; 0.1 µM; baseline: untreated): 84%
CN1CCN(Cc2ccc(NC(=O)c3cccc(C#Cc4cnc(N)c5ncccc45)c3)cc2C(F)(F)F)CC1  remaining binding (cell-free assay, competition with immobilised ligand; 0.5 µM): 64%
CNC(=O)C1CCN(c2cc(C)c(F)cc2NC(=O)c2ccc(-c3cc(O)ccc3C)c(C)c2)CC1  remaining binding (binding, competition with immobilised ligand; 1 µM): 100%
Cc1cnc2nc1Nc1cccc(c1)COC/C=C/COCc1cc(ccc1OCCN1CCOCC1)N2  remaining binding (binding; 0.1 µM): 65%
O=C(Cc1ccc(OCc2ccccc2)cc1)NC1(C(=O)O)CCN(C(=O)c2ccc(-c3cccc(Cl)c3)cc2)CC1  activity vs control (enzyme activity, inhibitor; 10 µM): 71%
CC(=O)N1c2ccc(-c3ccc(CNC(=O)c4cn5cc(-c6cnc(N)nc6)nc(N6CCOCC6)c5n4)cc3)cc2CC[C@@H]1C  remaining binding (KINOMEscan; 10 µM): 82%
CCn1cc(C(=O)O)c(=O)c2c(N)c(F)c(NC3CCCCC3)cc21  inhibition (kinase activity; 0.1 µM, together with: ATP at Km): 3.7%
C=CC(=O)N1CCc2ccc(-n3c(=O)ccc4cnc5ccc(-c6cnn(C)c6)cc5c43)cc21  remaining binding (KINOMEscan; 1 µM; baseline: DMSO control): 100%
Cc1cccc(O[C@H]2CCC[C@@H](C(C)CNCc3ccncc3)C2)c1 (relative stereo)  inhibition (enzyme activity, inhibitor; 10 µM): -3%
Nc1ncc(-c2cc(-c3cnn(CC(F)(F)F)c3)ncc2F)nc1C(=O)NC1CNCC(F)C1 (centres unmarked)  remaining activity (enzyme activity; 1 µM; baseline: DMSO control): 78.3%
C=CC(=O)Nc1cccc(-c2cnc3[nH]cc(C(=O)NC(C)(C)C)c3n2)c1  inhibition (kinase activity; 0.1 µM): 35% and 33%

For quick reference, copied from above:
NC(=O)[C@@H](O)C[C@H]1CCc2sc3ncnc(O[C@H]4CC[C@H](N5CCOCC5)CC4)c3c21  inhibition (enzyme activity, inhibitor; 10 µM): 16%
